Assay results from different studies.
Compare with care: the assays were run in different laboratories. ± gives the spread as reported.
Cell line: A549

NC(=S)N/N=C/C=N/NC(N)=S
IC50 (cell viability, MTT; 24 h then 48 h recovery, normoxia): 0.02 ± 0.01 µM

N.N.[Cl][Pt][Cl]
IC50 (cell viability, MTT; 4 h): 12.8 ± 4.94 µM

O=[N+]([O-])[O-].O=[N+]([O-])[O-].[Co+2]
IC50 (cell viability, MTT; 24 h hypoxic, 48 h normoxic, hypoxic treatment): > 500 µM

CC[C@H](C)[C@H](NC(=O)[C@@H](N)Cc1ccccc1)C(=O)NCC(=O)N[C@H](C(=O)N[C@@H](CC(C)C)C(=O)N[C@H](C(=O)N1CCC[C@H]1C(=O)N[C@@H](CC(C)C)C(=O)N[C@@H](C)C(=O)N[C@@H](CC(C)C)C(=O)NCC(=O)N[C@@H](C)C(=O)N[C@@H](CC(C)C)C(=O)N[C@H](C(=O)N[C@@H](CCCCN)C(=O)N[C@@H](CC(C)C)C(=O)N[C@@H](Cc1ccccc1)C(=O)N[C@@H](CCCCN)C(N)=O)[C@@H](C)O)[C@@H](C)CC)[C@@H](C)O
IC50 (cell growth or viability, CCK-8; 24 h): 14.1 µM

N.N.[Cl][Pt][Cl]
IC50 (cell growth or viability, MTT): 49.4 µM

CO[C@H]1/C=C\C=C(/C)C(=O)NC2=CC(=O)C(NCCN(C)C)=C(C[C@@H](C)C[C@H](OC)[C@H](O)[C@@H](C)/C=C(\C)[C@@H]1OC(N)=O)C2=O
IC50 (cell growth or viability, resazurin; 5 days): < 0.01 µM

N.N.[Cl][Pt][Cl]
IC50 (cell viability, MTT; 24 h hypoxic, 48 h normoxic, hypoxic treatment): 5.2 ± 2.4 µM

N.N.[Cl][Pt][Cl]
IC50 (cell viability, MTT; 24 h): > 50 µM

CC(C)[C@H](CO)Nc1nc(Nc2cc(N)cc(Cl)c2)c2ncn(C(C)C)c2n1
IC50 (cell growth or viability, resazurin; 5 days): > 10 µM

COc1cc(C(=O)c2sc(-c3ccccc3)nc2N)cc(OC)c1OC
IC50 (cell growth): 0.024 to 0.08 µM

CC[C@H](C)[C@H](NC(=O)[C@H]([C@@H](C)CC)N(C)C(C)=O)C(=O)N[C@H](C(=O)N[C@@H](CC(C)C)C(=O)[C@@]1(C)CO1)[C@@H](C)O
decrease of probe cleavage rate (250 nM, live cells, preincubation, added: TAS1-3 probes 10 µM): > 25%

C[C@H]1C[C@H]2[C@@H]3CCC4=CC(=O)C=C[C@]4(C)[C@@]3(Cl)[C@@H](O)C[C@]2(C)[C@@]1(O)C(=O)CO
IC50 (cell growth or viability, resazurin; 5 days): > 10 µM
